Assay results collected from several papers.
Lines come from different studies, so protocols differ.
Sequence of UniProt Q9HCP0 (whole entry, looked up): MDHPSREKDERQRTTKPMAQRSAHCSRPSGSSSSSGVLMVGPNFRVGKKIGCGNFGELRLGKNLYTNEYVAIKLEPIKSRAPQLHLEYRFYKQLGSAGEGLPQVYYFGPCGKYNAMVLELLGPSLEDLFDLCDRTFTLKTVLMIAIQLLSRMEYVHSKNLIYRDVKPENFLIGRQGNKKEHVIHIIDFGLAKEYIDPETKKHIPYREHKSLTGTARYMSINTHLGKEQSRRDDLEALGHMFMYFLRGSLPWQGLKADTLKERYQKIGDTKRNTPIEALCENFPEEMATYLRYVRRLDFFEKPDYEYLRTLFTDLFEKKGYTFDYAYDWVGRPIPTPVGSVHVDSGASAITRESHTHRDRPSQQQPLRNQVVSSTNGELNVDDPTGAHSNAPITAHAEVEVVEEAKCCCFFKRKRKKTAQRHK
Sequence of UniProt P25103 (whole entry, looked up): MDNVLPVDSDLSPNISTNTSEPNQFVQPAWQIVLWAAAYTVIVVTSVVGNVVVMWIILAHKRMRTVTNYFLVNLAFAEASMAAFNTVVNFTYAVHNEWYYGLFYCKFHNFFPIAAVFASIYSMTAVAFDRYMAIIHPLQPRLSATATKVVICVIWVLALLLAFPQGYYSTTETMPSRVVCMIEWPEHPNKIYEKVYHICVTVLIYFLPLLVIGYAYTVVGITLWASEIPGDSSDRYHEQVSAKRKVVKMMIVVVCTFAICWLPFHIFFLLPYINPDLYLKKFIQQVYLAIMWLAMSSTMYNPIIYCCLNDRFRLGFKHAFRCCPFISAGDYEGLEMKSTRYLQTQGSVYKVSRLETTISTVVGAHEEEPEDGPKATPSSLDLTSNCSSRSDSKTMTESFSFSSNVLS
Sequence of UniProt P08631 (whole entry, looked up): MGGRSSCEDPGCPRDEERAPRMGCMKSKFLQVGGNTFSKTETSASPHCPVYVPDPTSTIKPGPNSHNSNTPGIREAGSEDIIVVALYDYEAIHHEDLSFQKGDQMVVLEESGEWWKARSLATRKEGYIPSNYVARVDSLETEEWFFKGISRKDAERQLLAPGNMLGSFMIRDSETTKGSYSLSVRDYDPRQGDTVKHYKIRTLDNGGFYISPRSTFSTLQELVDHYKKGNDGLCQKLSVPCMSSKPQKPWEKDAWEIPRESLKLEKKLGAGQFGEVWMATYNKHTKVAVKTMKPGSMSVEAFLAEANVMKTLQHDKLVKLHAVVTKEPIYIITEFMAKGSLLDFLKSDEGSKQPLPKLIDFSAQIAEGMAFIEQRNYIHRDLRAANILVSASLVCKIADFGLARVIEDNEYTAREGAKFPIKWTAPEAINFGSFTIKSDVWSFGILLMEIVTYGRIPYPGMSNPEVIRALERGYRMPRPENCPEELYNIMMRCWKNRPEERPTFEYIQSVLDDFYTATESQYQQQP
Sequence of UniProt P49761 (whole entry, looked up): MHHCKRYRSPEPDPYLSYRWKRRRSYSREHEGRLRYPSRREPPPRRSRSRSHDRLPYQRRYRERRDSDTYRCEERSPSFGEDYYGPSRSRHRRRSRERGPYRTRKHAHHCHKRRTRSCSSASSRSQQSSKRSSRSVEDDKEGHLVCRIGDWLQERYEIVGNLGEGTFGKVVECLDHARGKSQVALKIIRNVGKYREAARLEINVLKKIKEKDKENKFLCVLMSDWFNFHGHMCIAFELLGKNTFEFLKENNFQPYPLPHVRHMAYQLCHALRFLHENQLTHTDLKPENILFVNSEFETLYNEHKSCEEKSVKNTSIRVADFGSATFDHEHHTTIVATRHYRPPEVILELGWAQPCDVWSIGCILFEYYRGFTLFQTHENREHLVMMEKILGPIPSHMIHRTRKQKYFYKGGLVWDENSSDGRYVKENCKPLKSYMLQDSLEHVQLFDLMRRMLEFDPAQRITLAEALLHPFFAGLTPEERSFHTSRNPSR
Sequence of UniProt Q13177 (whole entry, looked up): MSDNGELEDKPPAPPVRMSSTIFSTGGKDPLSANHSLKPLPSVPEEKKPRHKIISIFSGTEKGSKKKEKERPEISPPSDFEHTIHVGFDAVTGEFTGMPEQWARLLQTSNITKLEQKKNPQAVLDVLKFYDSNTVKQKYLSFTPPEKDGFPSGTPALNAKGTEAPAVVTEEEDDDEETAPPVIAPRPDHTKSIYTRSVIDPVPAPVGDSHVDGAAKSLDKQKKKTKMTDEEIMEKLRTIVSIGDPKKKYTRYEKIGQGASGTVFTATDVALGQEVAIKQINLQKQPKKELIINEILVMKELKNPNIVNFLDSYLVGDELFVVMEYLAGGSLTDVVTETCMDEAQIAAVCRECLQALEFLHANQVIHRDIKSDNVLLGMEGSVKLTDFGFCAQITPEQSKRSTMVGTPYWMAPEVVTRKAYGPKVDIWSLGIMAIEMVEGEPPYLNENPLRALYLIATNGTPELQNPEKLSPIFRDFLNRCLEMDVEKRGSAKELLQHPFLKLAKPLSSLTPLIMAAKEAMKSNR
Sequence of UniProt P18089 (whole entry, looked up): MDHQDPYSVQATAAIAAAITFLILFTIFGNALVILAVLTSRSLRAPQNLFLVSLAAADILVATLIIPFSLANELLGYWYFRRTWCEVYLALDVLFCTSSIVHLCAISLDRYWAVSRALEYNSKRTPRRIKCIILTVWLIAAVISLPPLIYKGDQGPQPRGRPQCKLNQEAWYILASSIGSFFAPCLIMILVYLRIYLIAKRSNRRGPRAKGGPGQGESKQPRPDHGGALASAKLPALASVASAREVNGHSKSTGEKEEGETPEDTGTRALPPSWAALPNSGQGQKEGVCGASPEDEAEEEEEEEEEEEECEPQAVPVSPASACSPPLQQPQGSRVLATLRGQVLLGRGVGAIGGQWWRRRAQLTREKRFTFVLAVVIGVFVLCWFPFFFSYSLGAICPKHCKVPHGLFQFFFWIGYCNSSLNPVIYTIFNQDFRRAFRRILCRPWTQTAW

| SMILES | target | test | test system | setting | inhibition [%] |
| --- | --- | --- | --- | --- | --- |
| O=C(CN1CN(c2ccccc2)C2(CCN(C(=O)c3cnc4[nH]ncc4c3)CC2)C1=O)NCC(F)(F)F | EGFR (Homo sapiens, UniProt P00533, G719S) | inhibitor |  | concentration not given | < 50 |
| N[C@H](C(=O)N1CCCC1)C1CCN(c2nccc3c(-c4ncc(Cl)cc4Cl)cccc23)CC1 | ADRA2B (Homo sapiens, UniProt P18089) | functional response, antagonist |  | 10 µM | 7 |
| CN(/N=C/c1ccccc1C(=O)O)c1nc(-c2ccccc2Cl)cs1 | CSNK1G1 (Homo sapiens, UniProt Q9HCP0) | enzyme activity, inhibitor |  | 1 µM | -6.17 |
| CS(C)(=O)=Nc1ccc(-c2ccc(-c3nc4cc(O[C@@H]5CO[C@H]6[C@@H]5OC[C@H]6O)[nH]c4cc3F)cc2)cc1 | myosin light chain kinase human | enzyme activity, inhibitor |  | 10 µM | 15 |
| COc1ccc(F)cc1S(=O)(=O)Nc1cnc2c(c1)C(=O)NCCO2 | TACR1 (Homo sapiens, UniProt P25103) | ligand displacement, radioligand |  | 10 µM | 4 |
| CN(C)[C@H]1C[C@@]23CC[C@@]4(O2)C(=CC[C@]2(C)[C@@H](c5ccc6ccncc6c5)CC[C@H]24)C=C3[C@@H](O)[C@@H]1O | PAK2 (Homo sapiens, UniProt Q13177) | probe labelling, inhibitor, KiNativ ATP probe MS | native lysate | 1 µM | 2.5 |
| CC(C)[C@H]1NC(=O)C[C@H]2/C=C/CCSSC[C@@H](NC1=O)C(=O)N[C@H](Cc1cccc3ccccc13)C(=O)NCC(=O)O2 | CLK3 (Homo sapiens, UniProt P49761) | enzyme activity, inhibitor |  | 10 µM | 1.8 |
| O=C(O)c1ccccc1/C=N/Nc1nc(-c2ccccc2Cl)cs1 | HCK (Homo sapiens, UniProt P08631) | enzyme activity, inhibitor |  | 1 µM | -10.3 |
| C[C@H](NCc1ccc(-c2ccc(C(F)(F)F)cc2)cc1)C(N)=O | L-type calcium channel phenylalkylamine site, rat | binding, radioligand binding | biochemical | 1 µM, added: [3H]desmethoxyverapamil 0.40 nM | 16 |

Excerpt of the above:
| SMILES | target | test | test system | setting | inhibition [%] |
| --- | --- | --- | --- | --- | --- |
| O=C(O)c1ccccc1/C=N/Nc1nc(-c2ccccc2Cl)cs1 | HCK (Homo sapiens, UniProt P08631) | enzyme activity, inhibitor |  | 1 µM | -10.3 |
